Measured values from different studies.
Every numbered part comes from another study and shows a few of its results, in no order. Positions count from the first letter of the parent shown.

Block 1
Target: HLA class I histocompatibility antigen, A alpha chain, allele A*25:01 (Homo sapiens, UniProt P04439)
Observed: peptide-MHC binding
Molecule type: peptide
Tested at: concentration not given
| Sequence | binding |
| --- | --- |
| VVPSYIPLV | inactive |
| RSFPEWDYI | inactive |
| KKNHWFILK | inactive |
| RLDKPLWLH | inactive |

Block 2
Target: CCNB2, cyclin fold, Cln2 fusion (human)
Technique: yeast growth competition, sequencing
Medium: yeast
Setting: strong parent motif
Relative to: not given
Direction: higher = stronger binding
Starting sequence: viral docking peptide; YKVKRRLVFGADD; partner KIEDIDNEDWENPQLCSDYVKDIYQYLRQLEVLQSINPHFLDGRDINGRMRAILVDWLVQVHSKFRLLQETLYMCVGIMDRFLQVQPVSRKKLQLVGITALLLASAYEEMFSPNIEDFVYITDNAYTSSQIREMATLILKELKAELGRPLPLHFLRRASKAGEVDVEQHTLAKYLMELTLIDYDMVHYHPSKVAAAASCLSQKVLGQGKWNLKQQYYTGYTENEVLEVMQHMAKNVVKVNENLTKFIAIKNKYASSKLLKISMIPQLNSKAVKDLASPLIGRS
| Variant | normalised enrichment score |
| --- | --- |
| YKVKRRLVFGVDD [A11V] | 1.61 |
| YKVKRRLVFGAID [D12I] | 1.13 |
| YKVKRRRVFGADD [L7R] | 1.27 |
| YKVKRRLVFGNDD [A11N] | 1.71 |
| YKVKRRLVGGADD [F9G] | 0.561 |
| YKVKRRLVFGADA [D13A] | 0.762 |
| YKVKRGLVFGADD [R6G] | -0.00289 |
| YKVKRRLVFGFDD [A11F] | 1.86 |
| YKVKRRWVFGADD [L7W] | 0.144 |
| YKVKRRTVFGADD [L7T] | 0.0397 |
| YQVKRRLVFGADD [K2Q] | 2.38 |
| YKVKFRLVFGADD [R5F] | -0.41 |
| YKVKRRLVFGKDD [A11K] | 1.3 |
| YKVKRRIVFGADD [L7I] | 1.11 |
| YKVKNRLVFGADD [R5N] | 0.135 |
| YKVKRRLVFGQDD [A11Q] | 1.26 |
| YKVKRRLWFGADD [V8W] | 1.3 |
| YKVKRRLVFGMDD [A11M] | 1.77 |
| YKVKRRLVFGPDD [A11P] | 2.35 |
| YKVTRRLVFGADD [K4T] | 0.297 |
| YKVKRRLVFQADD [G10Q] | 1.68 |
| YKVKRRPVFGADD [L7P] | 0.609 |
| YKVKRRVVFGADD [L7V] | 0.255 |
| YKVKRRLVTGADD [F9T] | 0.699 |
| YKVKRRGVFGADD [L7G] | 0.339 |

Block 3
Target: UBE2A UBC core domain (UniProt P49459)
UniProt P49459, sequence (whole entry, looked up): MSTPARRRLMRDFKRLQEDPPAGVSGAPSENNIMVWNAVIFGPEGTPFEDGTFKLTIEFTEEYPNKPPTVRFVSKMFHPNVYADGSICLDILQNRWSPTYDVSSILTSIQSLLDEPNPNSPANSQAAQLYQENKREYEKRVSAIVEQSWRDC
Technique: yeast two-hybrid
Medium: yeast
Setting: mostly zero background
Relative to: not given
Direction: higher = stronger interaction
B1: RNF181 RING domain (UniProt Q9P0P0); chain VIRGSQAELKCPVCLLEFEEEETAIEMPCHHLFHSSCILPWLSKTNSCPLCRYELPTDDDTY
B2: DTX1 RING domain (UniProt Q86Y01); chain QKVKNPPDEDCTICMERLVTASGYEGVLRHKGVRPELVGRLGRCGHMYHLLCLVAMYSNGNKDGSLQCPTCKAIYGEKTGTQ
B3: TRIM22 RING domain (UniProt Q8IYM9); chain KEVKMSPQEGQKRDVCEHHGKKLQIFCKEDGKVICWVCELSQEHQGHQTFRINEVVKECQEK
| Sequence | lacZ reporter activity |
| --- | --- |
| B1 (RNF181 RING domain) | 0 |
| B2 (DTX1 RING domain) | 0 |
| B3 (TRIM22 RING domain) | 0 |
| MDDQGCPRCKTTKYRNPSLKLMVNVCGHTLCESCVDLLFVRGAGNCPECGTPLRKSNFRV (MNAT1 RING domain (UniProt P51948)) | 0 |

Block 4
Target: Hepatocyte nuclear factor 3-alpha (Foxa1, Mus musculus, UniProt P35582, residues 1-468, full length assumed)
UniProt P35582, sequence (whole entry, looked up): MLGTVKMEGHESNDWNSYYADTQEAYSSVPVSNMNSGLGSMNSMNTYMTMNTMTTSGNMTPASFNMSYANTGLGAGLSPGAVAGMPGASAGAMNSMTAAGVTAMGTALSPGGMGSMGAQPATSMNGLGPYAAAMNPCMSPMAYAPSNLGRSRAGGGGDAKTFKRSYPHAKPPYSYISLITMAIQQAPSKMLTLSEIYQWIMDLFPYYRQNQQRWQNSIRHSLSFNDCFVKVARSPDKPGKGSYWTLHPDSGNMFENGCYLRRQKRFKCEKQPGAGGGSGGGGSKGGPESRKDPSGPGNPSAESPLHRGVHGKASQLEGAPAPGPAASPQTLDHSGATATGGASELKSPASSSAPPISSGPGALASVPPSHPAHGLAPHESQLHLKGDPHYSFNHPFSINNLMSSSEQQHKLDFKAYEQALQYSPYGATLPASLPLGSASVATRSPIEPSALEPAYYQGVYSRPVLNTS
Technique: EMSA with sequencing
Molecule type: double-stranded DNA, one strand shown
Medium: in vitro
Tested at: 10 and 20 nM
Setting: whole designed probe, mean of two concentrations, ends assumed
Relative to: negative control set to 0
Direction: higher = stronger binding
All sequences stand within: GTGAGCGGTGCCCATTGATGGGGAAC … TTTCACTGGGATCGTGGGGAC
| Strand | normalised bound fraction [ratio] |
| --- | --- |
| CTTTACCCTCCATGTTACAGGATTTTTTAAAAGAGTATCATTATATACAAAAAGTTAGAGTTCGCTGGTTAGAATGAGAACCATTCAAGGCAAAGTAAACATAAACTCTCCTGTCCCAAAGGGTGTTAACTAGGTCCGCTTTCATGTGCATCAGACGATACACCTATAGCAAGCACACACAGCAGTGCTAGGC | 0.419 |
| GGAAGTCTGCAATGCTTTGAACAGCAGGGTGTGGGAGGAAGTGTTGGCCCTACTCACCCTGCCTGACCTCCCTGGGCTGAGTCGACTGAGCTCTGTTTACATAGCTGAGGGACTGGGAATGCTGGAGTGGAGGAAGGAGGTGATGAATGATTCAGGAGGACACACAACATCCCTGCTTTTCTTTCCTGCTGGC | 0.416 |
| CCACCGCGCCTGGCCGAGAGCTCAGCGTTTTAAAACCTATAGTAGGCTGTTTTTTTCACGTCAATGTCAAATGTTTGTGTCTGTTTTTCAAAGGTAAATAAGAAGTCTGTTGTCTGTTGCAGTCTGAACTCTAGAGTGTAAGATCTGACATATCAAAGGCAAGAGTAAAAAGAGAAGGTGGTGCATGCATGTA | 0.236 |
| ATCTTCCCCCTCTTCCTTGCCCCACCAGCTCACCTTCCCGGGTTATTTGCAGATAGGAAAATAAATAAAGCCGGCATTCGTTAACCCTCTTCACGCGCATACTGCACATTGGTCTGGATGAATCATGGTCCTTTGGCGACGCCAGGCTCCGGGAGAGCAAAGCACCGTGTCAGGGCCATGATCCGGGGTGGCC | 0.34 |
| GCATACCAGTTGATGCCCCAGCCCTCCCTCCCAGGTAGATTTTGAAATCCTCTAGATGTGGAAAAATCTAAACATATTGTGCTATTTACAGAGTAAACAAGGGGAGTTGAGGATTTCATAAGCATGTTCTCCACTTTTTTTTCCCTTTTCCTCTTCCATCTTGGGAGTAGAAGAAAACAGATTCGGTTTACCT | 0.249 |
| ATAAGGCAGGGCACGGCTCTTCTTCAGAAAATGCCTCTGGGCCCTGCTCATCTGGAACTTGTTTTGGTAACTTTAAGCTTAGTAGCTTTTTTTGTTTACTTAGTAATACATTTTCTTTAGAGAGAACACACACACTGGGTTTTCTTTAGAGAGGAACACACTCGCACTGGGGCTGGACATGAGTCACTACAGT | 0.557 |
| CTTGCTGATTGCTAGCACAGCAGTCTGAGATCAAACTGCAAGGCGGCAGCAAGGCTGGGGGAGGGGCGCCCGCCATTGCCCAGGCTTGCTTAGGTAAACAAAGCAGCCTGGAAGCTCGTACTGGGTGGAGCCCACGACGCTCAAGGAGGCCTGCCTGCCTCTGTAGGCTCCACCTCTGGGGGCAGGGCACAGA | 0.533 |
| GTGGATTCTTTCATTATACAAATACACGTTATTTTTTAATTTCAGAAGAAATCATGATATGTCAATCTATTGAGTGCTAACTAAAAGTTCCCTTTGTTTACTTAGCTTTCTCTTAGTTATAAGAAAGAAAAAGACTTCTTGCATGAAAATAGTACGTTGCAGGAAGAAGTTGCCATGCTAAGACTGGAGCTAG | 0.495 |

Block 5
Target: RING finger protein unkempt homolog, zinc fingers 1-6, GST-SBP tag (UNK, Homo sapiens, UniProt Q9C0B0, residues 30-357)
UniProt Q9C0B0, sequence (30-357, looked up): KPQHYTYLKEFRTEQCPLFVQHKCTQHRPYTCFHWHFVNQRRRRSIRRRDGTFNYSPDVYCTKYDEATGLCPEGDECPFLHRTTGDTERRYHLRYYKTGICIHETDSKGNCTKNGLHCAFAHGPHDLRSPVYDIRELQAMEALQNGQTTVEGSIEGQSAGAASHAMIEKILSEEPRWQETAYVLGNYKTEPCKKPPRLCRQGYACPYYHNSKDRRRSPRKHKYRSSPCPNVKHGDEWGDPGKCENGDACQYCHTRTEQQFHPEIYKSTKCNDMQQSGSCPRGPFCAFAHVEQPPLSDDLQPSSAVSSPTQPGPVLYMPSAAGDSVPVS
Technique: RNA Bind-n-Seq
Molecule type: RNA
Medium: in vitro
Tested at: not given
Setting: RNA with constant flanks, human-mouse chimeric sites, ends assumed
Relative to: input RNA pool
Direction: higher = stronger binding
All sequences stand within: GGGAGUUCUACAGUCCGACGAUC … CAACAGAGGAUUGAGCAUCA
| Strand | bound/input enrichment |
| --- | --- |
| AUGGAACAUUUUGAUGCGUCACUCAGUACCUAUUUCAAGGCCUUCCUGGGCCCCCGAGAUACAAGAGUCAAAGGAUGGUUCCUCCUGGACAAUUACAUCCCUACGUUUAUCUGCUCUGUU | 0.106 ratio |
| GGCUGCUGGUGACUGUCGGGAGCCGUCUGGAGUUCCCGCCGGAGCGCGGCCAGACUAAUUUUAGAAAAUGCCAAGUAGGAAGUUUGUUGAGGGUGAAGUGGUCAGAGGCCGAUGGCCUGG | 2.44 ratio |
| UACUCAACUUUCUUUCCACAUUUUGAAUUCCAAGACAUUAUUCCUCCAGAUGACUUCCUAACUAGUGAUGAAGAGCAAGAUUUGGUUUUAUUUGGAACUAUGAGAGGACAAGUUGUUGGA | 0.26 ratio |
| AAACAUCUGUCUUUAAGCAUUCCAAGCGAGAAUGCUGGGGUGAUCAUUGUUGCCCAUGUGCCUUCUGUAAUAGAUGGAAUGCUGUUCCAUGUUACAUCUUUCCUUCACUCCAGAAUUGUU | 0.122 ratio |
| GUGCCCUUCUCGCUGCUCCUGCGGGGCAGCUGGGAACACCCCUUCCGCUGGUACCCUGCACACAGCCGCCUCUUCGAUCAAGCUUUCGGGGUGCCCCGGUUGCCCGAUGAGUGGUCGCAG | 0.128 ratio |
| GAUGAUAAUCACACAAACAAGUCACUGUUACAUGACCAGCCUUGGGAUUCUUUUCCUGAUUAAUAUUCUCCCUGGAACCACUAGCCAAGGGGAAUCAAGACGACAAGAACCCGGGGACUU | 0.165 ratio |
| CAGCCUCAGAGCCCAGACUUCCUGGAUAUUACCAACCCUAAAGCGGUAUUAGAAAAUGCAUUGAGAAACUUCGCCUGUCUGACGACUGGGGAUGUGAUUGCUAUCAACUACAAUGAGAAG | 0.427 ratio |
| AAUUUCCGCAACUGUUUUUUAGACAUUCACAUCAGACUUACAGAGCACCUGGCCACAUUCUAGGUUUGUGUUAUUUCUAAGCCUUUUAUAUGAUCAAAUGAGAACACUGCUUAACUAAUG | 0.45 ratio |

Block 6
Target: Phosphate system positive regulatory protein PHO4, full length, GST-tagged (PHO4, Saccharomyces cerevisiae, UniProt P07270, residues 1-312)
Technique: competition protein-binding microarray
Molecule type: double-stranded DNA, one strand shown
Medium: in vitro
Tested at: 2 µM
Setting: whole 60-bp probe, lowest competitor level
With: Cbf1 competitor, 0.05 µM
Direction: higher = stronger binding
All sequences stand within: … GTCTTGATTCGCTTGACGCTGCTG
Construct (chain): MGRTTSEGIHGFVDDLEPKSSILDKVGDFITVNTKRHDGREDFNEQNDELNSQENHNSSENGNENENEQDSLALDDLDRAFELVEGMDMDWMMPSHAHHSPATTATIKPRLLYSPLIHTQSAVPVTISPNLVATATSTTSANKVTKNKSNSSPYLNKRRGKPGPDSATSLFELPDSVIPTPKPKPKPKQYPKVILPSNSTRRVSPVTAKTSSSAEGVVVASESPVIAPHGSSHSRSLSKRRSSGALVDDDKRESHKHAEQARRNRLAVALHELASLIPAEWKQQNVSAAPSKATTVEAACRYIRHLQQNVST
| Strand | fluorescence intensity [a.u.] |
| --- | --- |
| TTATAATAAATAGTACACGTTGCAGACATATTTGGA | 13900 |
| CTCTTCTACAGTTACCACATGCAAAAGTCTTTCCTG | 8890 |
| GAACGTTAGTACTTGACCGTGCAATAATGGGAAGCA | 5680 |
| CATACCCAACCTTGTCACTTTACTTAAGATATTTGT | 3760 |
| AAAGCGGTAATTTGGGGGGTGGGTGCAGATATCTAT | 6280 |
| TGTGTTCTAGGCTTGAACGTGCCAGCAGCATATCGA | 11900 |
| CGGGGTTAAGTTTTTCACGTGCTGTGCTTGCAGCAG | 12700 |
| TCTCATCCATTCCGTCACGCTTTGGTTGCCGGTATT | 7020 |

Excerpt of the above (block 2):
| Variant | normalised enrichment score |
| --- | --- |
| YKVKRRTVFGADD [L7T] | 0.0397 |
| YQVKRRLVFGADD [K2Q] | 2.38 |
| YKVKFRLVFGADD [R5F] | -0.41 |
